# Published values gathered from unrelated publications.
# Every numbered part comes from another study and shows a few of its results, in no order. Changes are numbered by the printed parent chain.

# Block 1
# Target: CCND2, cyclin fold, Cln2 fusion (human)
# Technique: yeast growth competition, sequencing
# Medium: yeast
# Notes: weak parent motif
# Reference: not given
# Reading: higher = stronger binding
# Starting sequence: ORC1 docking peptide (human); PRARKRLELGNLG
Variant,normalised enrichment score
PRARKHLELGNLG [R6H],-0.0979
PRARKRLECGNLG [L9C],0.26
PRARKRDELGNLG [L7D],-0.204
PRARKRLELGKLG [N11K],0.189
PGARKRLELGNLG [R2G],0.311
PTARKRLELGNLG [R2T],0.407
PSARKRLELGNLG [R2S],-0.299
PFARKRLELGNLG [R2F],0.0796

# Block 2
# Target: Interferon regulatory factor 5, full length, phosphomimetic (IRF5, Homo sapiens, UniProt Q13568-2, residues 1-514, S451D/S453D/S456D/S462D)
# Technique: protein-binding microarray
# Molecule type: double-stranded DNA, one strand shown
# Medium: in vitro
# Concentration: 940 nM top
# Notes: 60-bp whole probe
# With: salmon DNA 0.4 mg/ml
# Reference: random background probes
# Reading: higher = stronger binding
# Shared flanks, not repeated: GCCTAGCAC … GTCTTGATTCGCTTGACGCTGCTG
Sequence,fitted relative affinity
AAGACCATCCTGTGTCTTAAAGTGCTA,0.00188 z-score
TAAGGTATCCTTTTCCTTTAGTGCTAG,0.415 z-score
GACGGACTCCTACTGCTGACGTGCTAG,-0.322 z-score
GACGGTATCGGTATCGGGGCGTGCTAG,8.66 z-score
GCTCATCTGTCATGTTTGTCAGTGCTA,2.19 z-score
TCATCTTTCACTGCTCCCACTGTGCTA,2.12 z-score
TTAGATTCCAGTTTCGATTTGTGCTAG,8.32 z-score
TTAGGTTTCGGGATTCGGTTAGTGCTA,8.76 z-score
TTAGGTATCCTTATCCTTCAGTGCTAG,0.39 z-score
GACGATTCCAGTTTCGAGAGGTGCTAG,3.95 z-score
GACGAACTGAGAGTGGAGACGTGCTAG,-0.42 z-score

# Block 3
# Target: Sal-like protein 4, full length isoform B (SALL4, Homo sapiens, UniProt Q9UJQ4-2, residues 1-616)
# Technique: universal PBM
# Molecule type: double-stranded DNA, one strand shown
# Medium: in vitro
# Concentration: not given
# Notes: 8-mer, flanks averaged, mean of replicates
# Reading: higher = stronger binding
# Target sequence (chain): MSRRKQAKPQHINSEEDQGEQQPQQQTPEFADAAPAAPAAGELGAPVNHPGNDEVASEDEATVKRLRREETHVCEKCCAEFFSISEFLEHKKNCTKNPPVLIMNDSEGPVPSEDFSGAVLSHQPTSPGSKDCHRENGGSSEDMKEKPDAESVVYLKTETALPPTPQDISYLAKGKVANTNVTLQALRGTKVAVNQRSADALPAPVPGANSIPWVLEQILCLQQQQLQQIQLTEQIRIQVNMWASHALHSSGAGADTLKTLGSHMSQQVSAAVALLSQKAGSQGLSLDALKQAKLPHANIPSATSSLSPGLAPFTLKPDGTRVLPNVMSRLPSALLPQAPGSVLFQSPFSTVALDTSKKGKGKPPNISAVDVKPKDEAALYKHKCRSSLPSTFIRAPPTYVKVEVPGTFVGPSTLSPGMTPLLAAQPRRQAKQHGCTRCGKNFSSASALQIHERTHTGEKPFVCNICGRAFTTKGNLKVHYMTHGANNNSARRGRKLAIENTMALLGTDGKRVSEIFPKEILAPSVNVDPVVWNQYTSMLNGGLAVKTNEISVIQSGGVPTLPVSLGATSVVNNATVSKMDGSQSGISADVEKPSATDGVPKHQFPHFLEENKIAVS
Sequence,E-score
GCGGTTAA,-0.0103
ATCCTTGA,0.0339
GATGGTGC,-0.21
CCAAATCC,-0.104
AGCGGTCC,-0.177
TAAGCCAA,0.0729
AGAGTGCC,-0.146
TCTTAAAA,0.25
ATTTCATC,0.287
AATGCATC,0.171
ATCGGTCA,-0.062
ACCACCAC,0.0411
CTCTGGAA,-0.106
CAGCTACC,-0.267

# Single results of other studies
Substance,target,test,system,conditions,how to read,measurement,result
"PhoQ, residues 284 288 289 292 302 303 TTCLQL","PhoP, residues 12 14 15 18 19 LQHIR (Escherichia coli, UniProt P23836)","Sort-seq, measured: YFP reporter",E. coli,"PhoQ-PhoP variant library, with: 10 µM Mg2+","reference: high Mg2+ state, higher = stronger signaling",fold induction,2.56

# Excerpt of the above (block 2):
Sequence,fitted relative affinity
TTAGGTATCCTTATCCTTCAGTGCTAG,0.39 z-score
GACGATTCCAGTTTCGAGAGGTGCTAG,3.95 z-score
GACGAACTGAGAGTGGAGACGTGCTAG,-0.42 z-score
